Assay results of several laboratories.
A part holds a random share of what one study measured. Changes are numbered by the printed parent chain.

Study 1
Target: CCND3, cyclin fold, Cln2 fusion (human)
Technique: yeast growth competition, sequencing
Matrix: yeast
Notes: weak parent motif
Relative to: not given
Direction: higher = stronger binding
Measurement: normalised enrichment score
Starting sequence: CDKN1A docking peptide (human); SKACRRLFGPVDS; partner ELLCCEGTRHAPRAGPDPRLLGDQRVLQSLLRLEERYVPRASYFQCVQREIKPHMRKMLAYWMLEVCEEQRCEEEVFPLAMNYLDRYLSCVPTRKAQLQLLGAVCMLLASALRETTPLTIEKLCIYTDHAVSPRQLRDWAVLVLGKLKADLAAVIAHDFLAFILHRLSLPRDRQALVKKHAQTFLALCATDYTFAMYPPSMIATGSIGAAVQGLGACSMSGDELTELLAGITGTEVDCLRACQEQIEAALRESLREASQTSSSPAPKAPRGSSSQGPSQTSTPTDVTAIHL
SKACRCLFGPVDS [R6C]: 0.184
SKMCRRLFGPVDS [A3M]: -0.0507
SKACRDLFGPVDS [R6D]: 0.442
SKACRNLFGPVDS [R6N]: 0.388
SKACRRLGGPVDS [F8G]: 0.0777

Study 2
Target: Histone acetyltransferase KAT6A, both winged helices, GST fusion (KAT6A, Homo sapiens, UniProt Q92794, residues 1-181)
Technique: protein binding microarray
Molecule type: double-stranded DNA, one strand shown
Matrix: in vitro
Concentration: not given
Notes: 8-mer, flanks averaged, mean of 2 arrays, mostly near background
Relative to: not given
Direction: higher = stronger binding
Measurement: E-score
Residues (chain): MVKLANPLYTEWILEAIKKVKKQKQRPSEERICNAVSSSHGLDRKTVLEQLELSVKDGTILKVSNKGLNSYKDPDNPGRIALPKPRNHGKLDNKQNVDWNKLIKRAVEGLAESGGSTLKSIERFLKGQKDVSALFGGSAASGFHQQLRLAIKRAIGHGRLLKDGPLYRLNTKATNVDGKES
AATACCAA: -0.0105
AGTGAAAG: -0.0513
GTTTCAAA: 0.00985
CCGATAGG: 0.0972
CTATGTCC: -0.0669
GCGAGATA: 0.0163
TGCTTACA: -0.0102

Study 3
Target: ABI1, truncated, D143A, DHFR fusion (Arabidopsis thaliana)
Technique: DHFR PCA, deep sequencing
Matrix: yeast
Notes: methotrexate growth selection, single substitutions
Added: (+)-ABA 4.8 µM
Relative to: wild-type fitted maximum
Direction: higher = stronger binding
Measurement: relative binding score
Starting sequence: PYL1, truncated, DHFR fusion (Arabidopsis thaliana); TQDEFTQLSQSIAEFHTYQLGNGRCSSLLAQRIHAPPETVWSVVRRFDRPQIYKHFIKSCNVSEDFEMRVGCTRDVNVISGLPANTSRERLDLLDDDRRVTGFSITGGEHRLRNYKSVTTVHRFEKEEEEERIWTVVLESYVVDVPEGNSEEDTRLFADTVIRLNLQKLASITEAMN; partner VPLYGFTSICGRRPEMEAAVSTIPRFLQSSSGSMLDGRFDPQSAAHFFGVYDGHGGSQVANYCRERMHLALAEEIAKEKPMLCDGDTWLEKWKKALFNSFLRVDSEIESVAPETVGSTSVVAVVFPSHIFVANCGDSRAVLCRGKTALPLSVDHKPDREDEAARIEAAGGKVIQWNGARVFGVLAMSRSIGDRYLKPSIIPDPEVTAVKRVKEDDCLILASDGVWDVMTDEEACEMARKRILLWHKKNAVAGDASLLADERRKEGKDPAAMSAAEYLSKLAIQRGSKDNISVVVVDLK
Q167E: 65.6%
L20Q: 80.9%
P83S: 26.2%

Further values, each from its own experiment
PhoQ, residues 284 288 289 292 302 303 AGCYAI — fold induction (PhoP, residues 12 14 15 18 19 HLGGL (Escherichia coli, UniProt P23836); Sort-seq, item: YFP reporter; E. coli; PhoQ-PhoP variant library, added: 10 µM Mg2+; relative to: high Mg2+ state, higher = stronger signaling): 0.88

Excerpt of the above (study 1):
SKMCRRLFGPVDS [A3M]: -0.0507
SKACRNLFGPVDS [R6N]: 0.388
